Measurements pooled from the literature.
Compare with care: the assays were run in different laboratories. ± marks the error that the study gave.

| SMILES | cell line | test | test system | setting | IC50 |
| --- | --- | --- | --- | --- | --- |
| OCn1cnc2ccccc21 | BEAS-2B | cell growth or viability, MTT | – | 24 h | 322000 nM |
| CN(C)c1ccc(CCC(=O)N2C(=O)C3(NC(c4ccc(F)cc4)C4(C(=O)Nc5ccccc54)N3Cc3ccc(F)cc3)c3ccccc32)cc1 (centres unmarked) | B16 | cell growth or viability, MTT | – | 48 h | 26100 nM |
| Cc1nc(N(C)c2ccc3c(c2)/C(=C/c2ccccc2)C(=O)N3C)c2ccccc2n1 | B16 | cell growth or viability, MTT | – | – | 1680 nM |
| [BH3-][P+]1(c2ccccc2)CCC(=O)CC1 | SW-620 | cell growth or viability, MTT | – | 72 h | > 100000 nM |
| CCn1nc(Cl)c2c1-c1cnc(N)c(c1)O[C@H](C)c1cc(F)ccc1-c1nn(C)cc1C2 | Ba/F3 CD74-ROS1 wild type | cell viability | – | – | 0.7 nM |
| Cc1nc(Nc2ccc3c(c2)/C(=C/c2ccccc2)C(=O)N3)c2ccccc2n1 | B16 | cell growth or viability, MTT | – | – | 4230 nM |
| CCOc1cncc(-c2ccc(NC(=O)C3(c4ccnc(NS(=O)(=O)C5CC5)n4)CCOCC3)nc2)n1 | renal cancer | cell viability, CellTiter-Glo | DMSO 0.1% | 72 h, line code 1781 | 616 nM |
| CC(=O)Oc1ccccc1C(=O)[O][Pt]([NH2])([NH2])([Cl])([Cl])[O]C(C)=O | PSN1 | cell growth or viability, MTT | – | 72 h | 250 nM |
| O=[P@]1(c2ccccc2)CC[C@H](O)CC1 | SW-620 | cell growth or viability, MTT | – | 72 h | > 100000 nM |
| CO[C@@H]1[C@@H](OC(=O)c2ccc(C)[nH]2)[C@@H](O)[C@H](Oc2ccc3c(O)c(NC(=O)c4c[nH]c(C(=O)Nc5c(O)c6ccc(O[C@@H]7OC(C)(C)[C@H](OC)[C@@H](OC(=O)c8ccc(C)[nH]8)[C@H]7O)c(C)c6oc5=O)c4C)c(=O)oc3c2C)OC1(C)C | PSN1 | cell growth or viability, ATP luminescence | – | 72 h | ~1700 nM |
| CCc1c(-c2ccc3[nH]ncc3c2)cnc(N)c1-c1ccc(O)cc1 | CHP-212 parental | cell viability, SRB | – | mean of 3 runs | 13800 nM |
| CN1CCC(N[C@H]2CCc3[nH]c4c(C(N)=O)ccc(-c5ccccc5Cl)c4c3C2)CC1 | SU-DHL-4 | cell growth or viability | – | – | 1950 nM |
| Cc1sc2c(c1C)C(c1ccc(Cl)cc1)=N[C@@H](CC(=O)NCCN(C)CCCCNC(=O)CCCCOc1cccc3c1C(=O)N([C@H]1CCC(=O)NC1=O)C3=O)c1nnc(C)n1-2 | KATO III | cell growth or viability, CCK-8 | – | 72 h | > 10000 nM |
| COc1ccc(C(C)N(C)c2nc(N)nc3nc[nH]c23)cc1 (centres unmarked) | CHO | cytotoxicity, MTT | – | – | > 50000 nM |
| CNS(=O)(=O)Nc1nccc(Cc2c(C)c3ccc(Oc4ncccc4F)cc3oc2=O)c1F | NCI-H1838 | cell viability | – | 7 days | > 1000 nM |
| C=CCOCO[C@H](C(=O)NC[C@@H]1C[C@@H](OC)C(C)(C)[C@@H](C[C@@H](COC)OC)O1)[C@@]1(OC)CC(=C)[C@@H](C)[C@@H](C)O1 | U-87 MG | cell viability, sulforhodamine B | – | 72 h, 37 °C, without H2O2 | 1760 ± 1290 nM |
| O=C1/C(=N\c2ccccc2Br)c2ccccc2N1Cc1ccc([N+](=O)[O-])cc1 | B16 | cell growth or viability, MTT | – | 48 h | 890 nM |
| Cn1ncc(-c2ccc3c(=O)[nH]nc(CN)c3c2)c1-c1c(F)c(Cl)cc(OC2CC2)c1C#N | NCI-H1666 | cell viability, inhibitor, CellTiter-Glo | – | 120 h, baseline-subtracted | 50 nM |

| SMILES | cell line | test | test system | setting | IC50 |
| --- | --- | --- | --- | --- | --- |
| NC(=O)c1ccc(-c2ccccc2Cl)c2c3c([nH]c12)CCC(N)C3 (centres unmarked) | SU-DHL-4 | cell growth or viability | – | 96 h | 15.9 nM |
| C=CC(=O)N1CC2C(=O)N(CCN(C)C)c3c(c4cc(Cl)c(-c5c(O)cccc5F)nc4n(-c4c(C)ccnc4C(C)C)c3=O)N2CC1C (centres unmarked) | NCI-H358 | cell growth or viability | – | – | 1.9 nM |
| CC(C)c1ccc(N(C)c2ccc3c(c2)OCC[C@H]3CNc2cnccc2C(=O)O)cc1 | NOMO-1 | cell growth or viability, ATP luminescence | – | 7 days | 5.01 nM |
| COc1c(Cl)cccc1Nc1c(-c2ccncc2C#C[C@@]2(C)CCCN2C(=O)/C=C/CN(C)C)[nH]c2c1C(=O)NCC2 | NCI-H2073 KI SVD | cell proliferation, CellTiter-Glo | – | 72 h | 6.04 nM |
| O=CCNCCOn1c(=O)n(OCCNCCO)c(=O)n(OCCNCCOn2c(=O)n(OCCNCCO)c(=O)n(OCCNCCO)c2=O)c1=O | A549 | cell growth or viability, MTT | – | 72 h | 11.8 µg/mL |
| O=C1C(Nc2ccc(Cl)cc2)c2ccccc2N1Cc1ccccc1 (centres unmarked) | B16 | cell growth or viability, MTT | – | 48 h | 45600 nM |
| C=CC(=O)N1CCCC(n2c(=O)c3ncccc3n(Cc3ccc(Oc4ccccc4)cc3)c2=O)C1 (centres unmarked) | SU-DHL-4 | cell growth or viability, MTT | – | 72 h | 40 nM |
| Cc1ccc([N+](=O)[O-])cc1S(=O)(=O)N(C)/N=C/c1cnc2ccc(Br)cn12 | NCI/ADR-RES | cytotoxicity, MTS | – | – | 24 nM |
| CSCC[C@@H](N)C(=O)N[C@@H](CC(C)C)C(=O)N[C@@H](CCCNC(=N)N)C(=O)N[C@@H](Cc1c[nH]c2ccccc12)C(=O)N[C@@H](CO)C(=O)N[C@@H](CCCNC(=N)N)C(=O)N[C@@H](CCCCN)C(=O)N[C@@H](CCSC)C(=O)N1CCC[C@H]1C(=O)N[C@@H](CS)C(=O)N[C@H](C(=O)N[C@@H](CO)C(=O)O)C(C)C | SUP-T1 | Erk phosphorylation, inhibitor, phospho flow cytometry | – | together with: CXCL12 100 ng/mL | 45600 ± 26000 nM |
| Cc1ccc(-n2cc(CSc3nc4ccccc4n3Cc3cn(-c4ccc(C)cc4)nn3)nn2)cc1 | Caco-2 | cell growth or viability, MTT | – | – | 12.2 µg/mL |
| C=CC(=O)Nc1cc(Nc2nccc(-c3cn(C)c4ccccc34)n2)c(OC)cc1N(C)CCN(C)C | Ba/F3 EGFR 19Del BBT-176-resistant BR2 | cell growth | – | 72 h | 19 nM |
| O=C(NCc1cc(F)cc(F)c1)[C@@]1(O)CCN(c2ccc3[nH]ccc3c2)C1=O | B16-F10 | cell growth or viability | – | – | 2000 nM |
| Cc1ccc(CN2C3(NC(c4ccc(C)cc4)C24C(=O)Nc2ccccc24)C(=O)Nc2ccccc23)cc1 (centres unmarked) | B16 | cell growth or viability, MTT | – | 48 h | 49000 nM |
| COc1ccccc1/C=C1\C(=O)N(C)c2ccc(Nc3nc(C)nc4ccccc34)cc21 | BEAS-2B | cell growth or viability, MTT | – | – | 10700 nM |
| NC(=O)c1nnn(Cc2cc(Cl)c(C(=O)c3ccc(Cl)cc3)c(Cl)c2)c1N | human iPSC-derived cardiomyocytes | beat rate, calcium transient | – | 15 min | 1660 nM |
| Cc1nc(Nc2ccc3c(c2)/C(=C/c2ccccc2Cl)C(=O)N3C)c2ccccc2n1 | BEAS-2B | cell growth or viability, MTT | – | – | 12800 nM |
| COC(=O)N1c2ccc3c(nc(Cc4ccccc4)n3[C@@H]3CCC[C@@H](C(=O)O)C3)c2CC[C@@H]1C | HCC1937 | cell growth or viability, ATP luminescence | – | 10 days | 9410 nM |

For quick reference, copied from above:
| SMILES | cell line | test | test system | setting | IC50 |
| --- | --- | --- | --- | --- | --- |
| COc1ccc(C(C)N(C)c2nc(N)nc3nc[nH]c23)cc1 (centres unmarked) | CHO | cytotoxicity, MTT | – | – | > 50000 nM |
| CNS(=O)(=O)Nc1nccc(Cc2c(C)c3ccc(Oc4ncccc4F)cc3oc2=O)c1F | NCI-H1838 | cell viability | – | 7 days | > 1000 nM |
| C=CCOCO[C@H](C(=O)NC[C@@H]1C[C@@H](OC)C(C)(C)[C@@H](C[C@@H](COC)OC)O1)[C@@]1(OC)CC(=C)[C@@H](C)[C@@H](C)O1 | U-87 MG | cell viability, sulforhodamine B | – | 72 h, 37 °C, without H2O2 | 1760 ± 1290 nM |
| O=C1/C(=N\c2ccccc2Br)c2ccccc2N1Cc1ccc([N+](=O)[O-])cc1 | B16 | cell growth or viability, MTT | – | 48 h | 890 nM |
| Cn1ncc(-c2ccc3c(=O)[nH]nc(CN)c3c2)c1-c1c(F)c(Cl)cc(OC2CC2)c1C#N | NCI-H1666 | cell viability, inhibitor, CellTiter-Glo | – | 120 h, baseline-subtracted | 50 nM |
